Published values pooled from the literature.
Numbered parts are unrelated; each lists some results of a single study. Positions count from the first letter of the parent shown.
Sequence of UniProt Q9M1R4 (whole entry, looked up): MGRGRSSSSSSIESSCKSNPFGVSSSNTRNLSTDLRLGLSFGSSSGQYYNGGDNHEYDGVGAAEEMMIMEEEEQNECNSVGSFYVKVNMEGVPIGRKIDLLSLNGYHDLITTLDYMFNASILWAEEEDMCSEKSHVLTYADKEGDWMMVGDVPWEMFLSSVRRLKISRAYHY
Sequence of UniProt O24408 (whole entry, looked up): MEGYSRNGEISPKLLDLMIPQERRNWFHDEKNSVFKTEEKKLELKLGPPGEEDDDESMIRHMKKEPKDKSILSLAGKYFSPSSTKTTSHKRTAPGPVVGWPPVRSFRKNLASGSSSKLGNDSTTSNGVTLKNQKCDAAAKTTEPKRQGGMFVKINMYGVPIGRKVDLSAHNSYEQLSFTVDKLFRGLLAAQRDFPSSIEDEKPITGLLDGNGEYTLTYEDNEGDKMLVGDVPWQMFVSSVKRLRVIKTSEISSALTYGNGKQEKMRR
Sequence of UniProt Q9FX25 (whole entry, looked up): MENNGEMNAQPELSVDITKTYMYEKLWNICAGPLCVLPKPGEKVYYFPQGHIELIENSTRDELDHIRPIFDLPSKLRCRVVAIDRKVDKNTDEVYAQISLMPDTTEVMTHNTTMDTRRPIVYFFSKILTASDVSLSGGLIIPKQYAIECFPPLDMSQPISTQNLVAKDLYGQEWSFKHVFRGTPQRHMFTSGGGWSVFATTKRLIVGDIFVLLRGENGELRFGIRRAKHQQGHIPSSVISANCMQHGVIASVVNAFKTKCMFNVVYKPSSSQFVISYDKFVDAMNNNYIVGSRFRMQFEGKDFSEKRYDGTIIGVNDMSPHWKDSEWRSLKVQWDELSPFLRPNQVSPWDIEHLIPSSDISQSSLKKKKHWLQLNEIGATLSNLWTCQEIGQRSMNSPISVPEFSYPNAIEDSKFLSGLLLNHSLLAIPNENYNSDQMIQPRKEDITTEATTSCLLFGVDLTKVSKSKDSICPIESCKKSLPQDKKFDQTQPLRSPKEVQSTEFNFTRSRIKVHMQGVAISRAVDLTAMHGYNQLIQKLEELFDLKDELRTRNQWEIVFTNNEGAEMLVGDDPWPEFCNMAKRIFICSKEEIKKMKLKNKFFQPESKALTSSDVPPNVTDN
Sequence of UniProt Q38828 (whole entry, looked up): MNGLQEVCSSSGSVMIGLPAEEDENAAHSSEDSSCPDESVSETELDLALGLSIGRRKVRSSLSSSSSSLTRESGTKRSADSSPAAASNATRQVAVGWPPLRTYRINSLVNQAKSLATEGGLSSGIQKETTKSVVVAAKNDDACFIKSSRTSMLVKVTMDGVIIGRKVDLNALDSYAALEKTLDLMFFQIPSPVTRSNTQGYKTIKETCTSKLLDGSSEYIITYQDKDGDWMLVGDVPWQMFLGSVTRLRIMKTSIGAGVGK
Sequence of UniProt P93024 (whole entry, looked up): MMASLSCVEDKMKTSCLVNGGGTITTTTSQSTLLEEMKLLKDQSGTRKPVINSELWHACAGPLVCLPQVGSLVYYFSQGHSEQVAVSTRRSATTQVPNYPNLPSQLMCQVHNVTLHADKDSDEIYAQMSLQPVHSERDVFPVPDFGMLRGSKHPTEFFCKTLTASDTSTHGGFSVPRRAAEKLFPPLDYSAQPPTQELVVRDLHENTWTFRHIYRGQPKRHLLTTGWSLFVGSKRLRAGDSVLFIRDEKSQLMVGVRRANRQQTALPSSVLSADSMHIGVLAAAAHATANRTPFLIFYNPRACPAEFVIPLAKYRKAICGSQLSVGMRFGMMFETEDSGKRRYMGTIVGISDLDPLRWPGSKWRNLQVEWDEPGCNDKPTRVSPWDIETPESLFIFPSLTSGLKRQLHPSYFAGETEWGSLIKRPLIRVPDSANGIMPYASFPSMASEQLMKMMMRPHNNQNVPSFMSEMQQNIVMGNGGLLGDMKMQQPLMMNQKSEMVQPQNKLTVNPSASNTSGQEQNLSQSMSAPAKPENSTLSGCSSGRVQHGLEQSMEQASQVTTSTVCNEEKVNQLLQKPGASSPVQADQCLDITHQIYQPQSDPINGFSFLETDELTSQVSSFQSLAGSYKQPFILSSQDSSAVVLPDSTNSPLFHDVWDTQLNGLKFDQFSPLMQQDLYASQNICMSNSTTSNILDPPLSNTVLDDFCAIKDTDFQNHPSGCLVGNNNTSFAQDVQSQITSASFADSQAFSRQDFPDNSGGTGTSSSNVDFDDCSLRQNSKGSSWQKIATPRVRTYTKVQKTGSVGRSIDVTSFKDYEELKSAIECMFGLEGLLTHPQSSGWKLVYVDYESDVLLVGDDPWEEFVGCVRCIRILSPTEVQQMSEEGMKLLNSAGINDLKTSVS
Sequence of UniProt Q14164 (whole entry, looked up): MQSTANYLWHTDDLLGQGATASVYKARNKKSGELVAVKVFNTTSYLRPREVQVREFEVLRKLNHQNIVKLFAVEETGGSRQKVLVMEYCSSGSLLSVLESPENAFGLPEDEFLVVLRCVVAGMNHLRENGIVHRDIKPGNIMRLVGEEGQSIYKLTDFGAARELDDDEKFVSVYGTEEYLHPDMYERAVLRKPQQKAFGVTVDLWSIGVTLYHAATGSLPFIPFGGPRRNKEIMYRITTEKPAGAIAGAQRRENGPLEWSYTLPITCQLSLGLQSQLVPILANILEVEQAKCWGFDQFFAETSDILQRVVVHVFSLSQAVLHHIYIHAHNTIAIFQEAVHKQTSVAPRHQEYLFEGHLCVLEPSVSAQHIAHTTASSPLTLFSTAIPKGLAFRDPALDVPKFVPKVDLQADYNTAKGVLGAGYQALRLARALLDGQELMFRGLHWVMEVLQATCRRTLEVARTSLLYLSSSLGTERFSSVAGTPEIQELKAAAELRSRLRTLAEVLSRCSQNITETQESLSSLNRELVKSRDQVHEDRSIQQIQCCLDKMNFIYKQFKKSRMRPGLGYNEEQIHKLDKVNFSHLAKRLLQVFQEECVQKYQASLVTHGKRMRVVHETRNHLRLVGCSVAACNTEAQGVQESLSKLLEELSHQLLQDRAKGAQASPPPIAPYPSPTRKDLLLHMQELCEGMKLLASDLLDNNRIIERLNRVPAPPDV
Sequence of UniProt Q38826 (whole entry, looked up): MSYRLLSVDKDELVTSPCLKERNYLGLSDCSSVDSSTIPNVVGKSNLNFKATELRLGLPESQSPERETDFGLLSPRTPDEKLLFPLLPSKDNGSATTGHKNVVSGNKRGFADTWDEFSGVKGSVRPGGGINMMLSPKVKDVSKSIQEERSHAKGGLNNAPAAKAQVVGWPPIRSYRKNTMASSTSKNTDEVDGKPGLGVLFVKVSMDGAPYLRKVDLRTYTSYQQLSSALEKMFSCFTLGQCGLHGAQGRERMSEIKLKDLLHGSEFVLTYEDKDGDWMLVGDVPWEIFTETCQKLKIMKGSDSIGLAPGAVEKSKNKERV
Sequence of UniProt Q93WC4 (whole entry, looked up): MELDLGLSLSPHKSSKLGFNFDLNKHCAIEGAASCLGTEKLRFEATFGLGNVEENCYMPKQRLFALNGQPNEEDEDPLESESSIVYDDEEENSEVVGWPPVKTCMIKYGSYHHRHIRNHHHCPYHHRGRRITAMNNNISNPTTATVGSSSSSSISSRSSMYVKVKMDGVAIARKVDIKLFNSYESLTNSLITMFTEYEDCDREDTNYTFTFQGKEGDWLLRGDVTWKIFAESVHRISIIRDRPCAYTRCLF
Sequence of UniProt Q94JM3 (whole entry, looked up): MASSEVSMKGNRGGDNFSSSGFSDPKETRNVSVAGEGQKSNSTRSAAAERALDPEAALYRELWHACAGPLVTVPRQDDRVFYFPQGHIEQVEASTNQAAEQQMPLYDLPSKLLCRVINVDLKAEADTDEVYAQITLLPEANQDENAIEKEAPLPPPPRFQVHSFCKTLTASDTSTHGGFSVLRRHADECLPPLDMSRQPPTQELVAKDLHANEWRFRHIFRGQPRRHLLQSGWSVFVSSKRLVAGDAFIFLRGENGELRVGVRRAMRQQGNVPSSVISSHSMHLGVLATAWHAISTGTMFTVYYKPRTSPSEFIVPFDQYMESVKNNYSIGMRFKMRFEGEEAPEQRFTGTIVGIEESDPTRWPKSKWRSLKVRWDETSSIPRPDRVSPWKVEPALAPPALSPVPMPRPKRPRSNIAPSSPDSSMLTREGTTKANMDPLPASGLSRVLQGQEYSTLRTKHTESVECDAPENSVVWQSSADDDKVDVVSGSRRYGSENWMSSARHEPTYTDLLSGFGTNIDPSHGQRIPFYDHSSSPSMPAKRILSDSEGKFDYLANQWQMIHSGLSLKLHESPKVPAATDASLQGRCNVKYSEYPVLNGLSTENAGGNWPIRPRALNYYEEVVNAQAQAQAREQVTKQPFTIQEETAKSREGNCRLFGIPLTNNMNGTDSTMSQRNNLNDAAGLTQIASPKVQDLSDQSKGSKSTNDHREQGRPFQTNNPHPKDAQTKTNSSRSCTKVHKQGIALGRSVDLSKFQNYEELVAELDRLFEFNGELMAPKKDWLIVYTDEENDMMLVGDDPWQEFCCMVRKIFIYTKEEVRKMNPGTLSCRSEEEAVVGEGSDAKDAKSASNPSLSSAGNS

Sample 1
Target: Interferon regulatory factor 7, full length, phosphomimetic (IRF7, Homo sapiens, UniProt Q92985, residues 1-503, S471D/S472D/S475D/S476D/S477D/S483D/S484D/S487D)
Technique: protein-binding microarray
Molecule type: double-stranded DNA, one strand shown
Sample: in vitro
Tested at: 2200 nM top
Setting: 60-bp whole probe
Added: salmon DNA 0.4 mg/ml
Baseline: random background probes
Reading: higher = stronger binding
Shared flanks, not repeated: GCCTAGCAC … GTCTTGATTCGCTTGACGCTGCTG
Construct (chain): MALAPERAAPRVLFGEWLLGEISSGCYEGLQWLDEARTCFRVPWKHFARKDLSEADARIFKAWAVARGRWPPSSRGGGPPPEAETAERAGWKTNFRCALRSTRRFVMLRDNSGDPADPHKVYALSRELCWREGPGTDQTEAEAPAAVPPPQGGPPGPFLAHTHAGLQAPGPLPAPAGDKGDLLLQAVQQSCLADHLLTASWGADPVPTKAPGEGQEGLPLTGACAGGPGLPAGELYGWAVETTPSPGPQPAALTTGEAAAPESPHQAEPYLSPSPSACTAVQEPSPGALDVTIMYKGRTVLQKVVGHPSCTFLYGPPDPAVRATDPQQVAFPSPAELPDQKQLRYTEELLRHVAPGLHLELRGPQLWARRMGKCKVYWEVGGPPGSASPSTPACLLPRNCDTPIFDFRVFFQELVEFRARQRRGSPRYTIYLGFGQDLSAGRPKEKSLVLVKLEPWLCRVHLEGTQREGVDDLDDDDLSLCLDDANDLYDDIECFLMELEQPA
`AGCAGAAAGTGAAATACCCTCGTGCTA`: “fitted relative affinity” -0.42 z-score.
For `CTAGATTTCAGTATCGATTAGTGCTAG`, “fitted relative affinity” read 1.09 z-score.
`CACTCTCTGGGCTGTGGGTTTGTGCTA`: “fitted relative affinity” 0.268 z-score.
For `TCAGCTGTTTTTCTCACACTGTGCTAG`, “fitted relative affinity” read 0.889 z-score.
For `GACGATTTCAGACTGCAGACGTGCTAG`, “fitted relative affinity” read 0.545 z-score.
`GACGGTATCGGGACTTGGGACGTGCTA` — result for “fitted relative affinity”: -0.351 z-score.
Under “fitted relative affinity”, `GACGGTATCGGGACGGGGGACGTGCTA` is recorded as 0.578 z-score.
Under “fitted relative affinity”, `GACGCTCTCCTTCTCCTGACGTGCTAG` is recorded as 1.47 z-score.

Sample 2
Sequence: B1 (IAA6)
Technique: two-hybrid
Reading: higher = firmer interaction
B1: IAA6 (Arabidopsis thaliana, UniProt Q38824); chain MAKEGLALEITELRLGLPGDNYSEISVCGSSKKKKRVLSDMMTSSALDTENENSVVSSVEDESLPVVKSQAVGWPPVCSYRRKKNNEEASKAIGYVKVSMDGVPYMRKIDLGSSNSYINLVTVLENLFGCLGIGVAKEGKKCEYIIIYEDKDRDWMLVGDVPWQMFKESCKRLRIVKRSDATGFGLQQD
For IAA8 (Arabidopsis thaliana, UniProt Q38826); baseline: out of 4 tests: positive tests read 1.
IAA10 (Arabidopsis thaliana, UniProt Q38828); baseline: out of 4 tests — positive tests: 0.
For IAA29 (Arabidopsis thaliana, UniProt Q93WC4); baseline: out of 4 tests: positive tests read 0.
IAA30 (Arabidopsis thaliana, UniProt Q9M1R4); weak activation fusion; baseline: out of 4 tests — positive tests: 1.
ARF13 (Arabidopsis thaliana, UniProt Q9FX25); baseline: out of 4 tests — positive tests: 0.
It gave 1 for positive tests (ARF5 788-902 (Arabidopsis thaliana, UniProt P93024); baseline: out of 4 tests).
The positive tests was 1 (ARF2 727-859 (Arabidopsis thaliana, UniProt Q94JM3); baseline: out of 4 tests).
For IAA18 (Arabidopsis thaliana, UniProt O24408); baseline: out of 2 tests: positive tests read 0.

Sample 3
Target: CCNA1, cyclin fold, Cln2 fusion (human)
Technique: yeast growth competition, sequencing
Sample: yeast
Setting: weak parent motif
Baseline: not given
Reading: higher = stronger binding
Parent: AKAP12 docking peptide (human); GSPLKKLFTSTGL
For `GSPLKKLFTSTAL [G12A]`, “normalised enrichment score” read -0.153.
`GSPLKALFTSTGL [K6A]`: “normalised enrichment score” 0.0105.
For `GSPLRKLLTSTGL [K5R F8L]`, “normalised enrichment score” read -0.575.
Under “normalised enrichment score”, `ASPLKKLFTSTGL [G1A]` is recorded as -0.00693.
Under “normalised enrichment score”, `GSPLAKAFTSTGL [K5A L7A]` is recorded as -0.0675.
`GSPLKKLFTSTGA [L13A]`: “normalised enrichment score” 0.338.
`GSPLKKLFTATGL [S10A]`: “normalised enrichment score” 0.122.
`GSPLKKLLTSTGL [F8L]`: “normalised enrichment score” -0.576.

Single results of other studies
The remaining activity of O=C(Nc1cccc(Nc2nccc(Nc3cccc(C(F)(F)F)c3)n2)c1)C1CC1 is reported as 97.5% (Inhibitor of nuclear factor kappa-B kinase subunit epsilon (IKBKE, Homo sapiens, UniProt Q14164); enzyme activity, inhibitor; 0.5 µM; baseline: control).
